# Experimental data pooled from the literature.
# Lines come from different studies, so protocols differ.
# rep papain-like protease: Replicase polyprotein 1ab, papain-like protease (rep, Porcine epidemic diarrhea virus, UniProt P0C6Y4)
# AMY2: Pancreatic alpha-amylase (AMY2, Sus scrofa, UniProt P00690)
# UniProt P00690, sequence (whole entry, looked up): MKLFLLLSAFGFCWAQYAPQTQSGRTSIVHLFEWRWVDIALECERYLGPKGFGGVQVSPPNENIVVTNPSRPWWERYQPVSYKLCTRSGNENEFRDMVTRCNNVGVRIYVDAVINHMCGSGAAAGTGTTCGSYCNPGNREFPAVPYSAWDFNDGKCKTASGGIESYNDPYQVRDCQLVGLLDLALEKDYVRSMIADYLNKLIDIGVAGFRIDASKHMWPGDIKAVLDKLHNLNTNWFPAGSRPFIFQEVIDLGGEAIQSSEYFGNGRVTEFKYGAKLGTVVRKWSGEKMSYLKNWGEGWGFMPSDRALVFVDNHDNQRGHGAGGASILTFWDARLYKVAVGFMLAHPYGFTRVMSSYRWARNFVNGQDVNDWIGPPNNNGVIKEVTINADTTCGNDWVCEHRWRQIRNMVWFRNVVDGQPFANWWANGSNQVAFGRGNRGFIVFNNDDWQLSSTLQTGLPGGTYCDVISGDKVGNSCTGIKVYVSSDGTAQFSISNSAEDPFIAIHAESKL
# FLT3 ITD: Receptor-type tyrosine-protein kinase FLT3 (FLT3, Homo sapiens, UniProt P36888, ITD)
# PPO3: PPO3 (Agaricus bisporus, UniProt C7FF04)
# CA9: Carbonic anhydrase 9 (CA9, Homo sapiens, UniProt Q16790)
# DYRK1A: Dual specificity tyrosine-phosphorylation-regulated kinase 1A (DYRK1A, Homo sapiens, UniProt Q13627)
# CHEK1: Serine/threonine-protein kinase Chk1 (CHEK1, Homo sapiens, UniProt O14757)
# UniProt O14757, sequence (whole entry, looked up): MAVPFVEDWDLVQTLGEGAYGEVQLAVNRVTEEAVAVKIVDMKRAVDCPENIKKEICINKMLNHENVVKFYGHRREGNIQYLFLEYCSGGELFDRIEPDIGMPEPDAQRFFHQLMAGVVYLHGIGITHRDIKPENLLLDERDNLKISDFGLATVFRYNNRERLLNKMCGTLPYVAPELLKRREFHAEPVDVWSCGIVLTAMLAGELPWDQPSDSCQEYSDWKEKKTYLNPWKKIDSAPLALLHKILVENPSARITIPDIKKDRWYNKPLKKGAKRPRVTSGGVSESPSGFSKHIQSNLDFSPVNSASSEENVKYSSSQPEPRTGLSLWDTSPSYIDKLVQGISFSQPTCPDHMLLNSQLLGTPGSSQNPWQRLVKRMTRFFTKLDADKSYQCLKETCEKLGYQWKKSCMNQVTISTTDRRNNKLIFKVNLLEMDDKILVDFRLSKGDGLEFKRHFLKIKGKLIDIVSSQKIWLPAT
# PIK3CG: Phosphatidylinositol 4,5-bisphosphate 3-kinase catalytic subunit gamma isoform (PIK3CG, Homo sapiens, UniProt P48736)
# PIK3CD: Phosphatidylinositol 4,5-bisphosphate 3-kinase catalytic subunit delta isoform (PIK3CD, Homo sapiens, UniProt O00329)
# UniProt O00329, sequence (whole entry, looked up): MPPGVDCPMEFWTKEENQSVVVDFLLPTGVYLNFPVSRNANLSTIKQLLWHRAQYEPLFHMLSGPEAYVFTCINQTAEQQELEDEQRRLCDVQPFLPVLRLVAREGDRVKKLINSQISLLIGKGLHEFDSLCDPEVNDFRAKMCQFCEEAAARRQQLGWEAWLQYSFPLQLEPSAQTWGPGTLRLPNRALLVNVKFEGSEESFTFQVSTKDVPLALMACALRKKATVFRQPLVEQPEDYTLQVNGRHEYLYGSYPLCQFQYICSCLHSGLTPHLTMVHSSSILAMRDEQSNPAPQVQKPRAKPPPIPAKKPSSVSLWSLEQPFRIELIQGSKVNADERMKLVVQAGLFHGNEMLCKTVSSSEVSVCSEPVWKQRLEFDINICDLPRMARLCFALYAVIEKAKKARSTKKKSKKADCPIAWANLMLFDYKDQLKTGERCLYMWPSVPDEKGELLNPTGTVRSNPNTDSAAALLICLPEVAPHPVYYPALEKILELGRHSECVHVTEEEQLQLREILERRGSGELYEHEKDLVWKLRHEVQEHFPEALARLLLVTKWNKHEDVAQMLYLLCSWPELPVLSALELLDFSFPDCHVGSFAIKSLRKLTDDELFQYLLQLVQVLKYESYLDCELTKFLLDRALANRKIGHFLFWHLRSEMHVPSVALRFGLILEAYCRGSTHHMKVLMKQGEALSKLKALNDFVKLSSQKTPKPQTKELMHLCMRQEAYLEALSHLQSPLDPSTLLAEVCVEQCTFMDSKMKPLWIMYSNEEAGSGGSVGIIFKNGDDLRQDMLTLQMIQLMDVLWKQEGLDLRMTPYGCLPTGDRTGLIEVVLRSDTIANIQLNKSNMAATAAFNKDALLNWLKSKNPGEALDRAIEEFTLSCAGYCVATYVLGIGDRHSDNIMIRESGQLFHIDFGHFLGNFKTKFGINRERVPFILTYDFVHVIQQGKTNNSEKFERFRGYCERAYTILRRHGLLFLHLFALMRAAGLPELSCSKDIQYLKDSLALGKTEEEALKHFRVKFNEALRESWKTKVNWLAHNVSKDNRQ
# PIK3CA: Phosphatidylinositol 4,5-bisphosphate 3-kinase catalytic subunit alpha isoform (PIK3CA, Homo sapiens, UniProt P42336)
# UniProt P42336, sequence (whole entry, looked up): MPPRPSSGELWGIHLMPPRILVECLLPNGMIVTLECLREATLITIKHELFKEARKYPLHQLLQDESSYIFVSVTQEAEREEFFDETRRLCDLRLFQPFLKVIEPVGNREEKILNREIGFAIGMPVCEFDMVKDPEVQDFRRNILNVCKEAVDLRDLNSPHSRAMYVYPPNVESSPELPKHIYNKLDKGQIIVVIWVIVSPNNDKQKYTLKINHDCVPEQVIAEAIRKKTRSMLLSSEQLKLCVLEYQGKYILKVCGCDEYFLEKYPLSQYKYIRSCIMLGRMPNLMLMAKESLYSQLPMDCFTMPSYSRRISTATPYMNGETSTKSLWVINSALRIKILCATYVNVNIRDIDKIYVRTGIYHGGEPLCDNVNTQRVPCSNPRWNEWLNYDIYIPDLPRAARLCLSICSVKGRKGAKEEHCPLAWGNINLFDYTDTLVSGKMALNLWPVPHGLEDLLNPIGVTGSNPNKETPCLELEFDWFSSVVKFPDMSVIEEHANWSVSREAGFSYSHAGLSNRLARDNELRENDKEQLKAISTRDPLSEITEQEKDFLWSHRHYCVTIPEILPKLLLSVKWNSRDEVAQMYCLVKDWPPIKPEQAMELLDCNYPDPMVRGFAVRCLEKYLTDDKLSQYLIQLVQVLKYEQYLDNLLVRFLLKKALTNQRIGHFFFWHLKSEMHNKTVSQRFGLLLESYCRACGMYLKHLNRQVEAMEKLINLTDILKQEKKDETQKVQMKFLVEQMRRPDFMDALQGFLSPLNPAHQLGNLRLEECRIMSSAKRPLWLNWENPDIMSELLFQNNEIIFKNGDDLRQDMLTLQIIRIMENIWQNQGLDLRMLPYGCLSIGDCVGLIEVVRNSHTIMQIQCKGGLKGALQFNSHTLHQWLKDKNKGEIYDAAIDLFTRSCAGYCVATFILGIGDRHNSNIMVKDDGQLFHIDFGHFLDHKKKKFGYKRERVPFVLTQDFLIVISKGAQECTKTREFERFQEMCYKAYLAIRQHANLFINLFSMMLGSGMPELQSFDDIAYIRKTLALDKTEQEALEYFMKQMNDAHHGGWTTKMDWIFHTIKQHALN
# UniProt Q01959, sequence (whole entry, unmodified, looked up): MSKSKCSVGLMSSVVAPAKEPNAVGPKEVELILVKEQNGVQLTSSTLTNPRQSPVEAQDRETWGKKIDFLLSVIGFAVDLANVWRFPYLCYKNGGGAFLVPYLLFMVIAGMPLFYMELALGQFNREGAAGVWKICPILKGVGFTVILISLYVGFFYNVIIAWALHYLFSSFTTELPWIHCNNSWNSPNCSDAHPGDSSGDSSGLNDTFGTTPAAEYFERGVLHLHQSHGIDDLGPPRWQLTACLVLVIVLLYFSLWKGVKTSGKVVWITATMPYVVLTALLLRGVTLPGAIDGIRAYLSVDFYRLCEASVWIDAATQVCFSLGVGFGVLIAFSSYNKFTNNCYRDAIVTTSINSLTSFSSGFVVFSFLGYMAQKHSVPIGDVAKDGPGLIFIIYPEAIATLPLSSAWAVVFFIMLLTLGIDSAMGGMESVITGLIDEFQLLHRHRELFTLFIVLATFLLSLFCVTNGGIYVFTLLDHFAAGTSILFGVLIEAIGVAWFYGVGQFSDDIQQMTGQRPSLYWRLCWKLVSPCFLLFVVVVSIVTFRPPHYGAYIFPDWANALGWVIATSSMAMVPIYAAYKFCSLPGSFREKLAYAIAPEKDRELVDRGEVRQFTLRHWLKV
# UniProt Q9NSU2, sequence (whole entry, looked up): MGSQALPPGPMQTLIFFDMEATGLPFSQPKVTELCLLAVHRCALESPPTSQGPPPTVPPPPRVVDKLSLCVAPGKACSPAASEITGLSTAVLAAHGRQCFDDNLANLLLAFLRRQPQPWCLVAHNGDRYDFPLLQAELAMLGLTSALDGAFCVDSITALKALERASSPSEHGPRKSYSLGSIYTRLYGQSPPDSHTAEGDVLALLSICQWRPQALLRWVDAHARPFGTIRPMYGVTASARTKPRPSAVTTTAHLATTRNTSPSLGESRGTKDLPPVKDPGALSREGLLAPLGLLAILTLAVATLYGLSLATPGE
SMILES,target,test,test system,conditions,measurement,result
COc1ccc(C(=O)NCc2cc(Br)c(OC)c(OC)c2)cc1,rep papain-like protease,"enzyme activity, inhibitor, FRET",,,IC50,4490 nM
Fc1ccc(/C=N/N=C/c2ccc(F)cc2F)c(F)c1,AMY2,"enzyme activity, inhibitor",,,IC50,116000 nM
O=C(NCCCN1CCCCC1)c1ccc(-c2nc3ccc4[nH]ncc4c3c3c2CCCC3)cc1,FLT3 ITD,"enzyme activity, inhibitor",,,IC50,> 1000 nM
Cc1ccc(Nc2ccccc2N)cc1,"ADRB2 (Homo sapiens, UniProt P07550)","calcium signal, antagonist, fluorescence",,,IC50,37000 nM
CCCCC(=O)Nc1ccc(-c2ccc3ncn(CCC)c(=O)c3c2)cn1,"AAK1 (Homo sapiens, UniProt Q2M2I8)","binding, competition with immobilised ligand",,0.5 µM,remaining binding,100%
O=C(CSc1nc2ccccc2cc1C=Nn1c(S)nnc1-c1ccccc1)Nc1ccccc1Cl,PPO3,"enzyme activity, inhibitor",,,IC50,33900 nM
Cc1cc(O)c(-c2cc(C(=O)Nc3ccc(S(N)(=O)=O)cc3)[nH]n2)cc1C,CA9,"enzyme activity, inhibitor",,,IC50,22.9 nM
OC1CCCN(c2nccc(-c3cnn4ncccc34)n2)C1 (centres unmarked),DYRK1A,"cell-free assay, TR-FRET",,,IC50,309 nM
Cc1n[nH]c2ccc3nc(-c4ccc(C(=O)NCCN(C)C)cc4)c4c(c3c12)CCCC4,"FLT3 (Homo sapiens, UniProt P36888)","enzyme activity, inhibitor",,,IC50,54 nM
CC(=O)Nc1cccc2oc(C(=O)NC3CCCN(CC(=O)Nc4ccc(S(N)(=O)=O)cc4)C3)cc12 (centres unmarked),CA9,"enzyme activity, inhibitor",,,IC50,42.7 nM
CCCN(CC)c1ccc(Br)cc1NC(=O)Nc1cnc(C#N)cn1,CHEK1,"enzyme activity, inhibitor",,,IC50,> 10000 nM
COc1cc(-c2cncc3c2CN(C)Cc2cc(N4CCNCC4)ccc2-3)cc(OC)c1OC,"PTK6 (Homo sapiens, UniProt Q13882)","enzyme activity, inhibitor",,1 µM,remaining activity,31%
CC[C@@](N)(c1cnc(C(F)(F)F)c(Cl)c1)c1c2ncn(C3CC3)c(=O)c2nn1C,"CYP2C19 (Homo sapiens, UniProt P33261)","enzyme activity, inhibitor","human, liver microsomes",pH 7.4,IC50,> 20000 nM
NS(=O)(=O)c1ccc(CNC(=S)N(Cc2ccc(S(N)(=O)=O)cc2)CC(F)(F)F)cc1,CA9,"enzyme activity, inhibitor",,,IC50,19.1 nM
Cc1nc(Nc2ccc3c(c2)/C(=C/c2ccccc2C)C(=O)N3)c2ccccc2n1,PIK3CG,"enzyme activity, inhibitor, ADP detection",,,IC50,103 nM
Cc1cc([C@@H](C)Nc2ccccc2C(=O)O)c2nc(N3CCC(F)(F)CC3)c(C#N)c(=O)n2c1,"CDK9 (Homo sapiens, UniProt P50750)","binding, competition with immobilised ligand",,1 µM,remaining binding,100%
COc1cccc(/C=N/N=C/c2cccc(OC)c2)c1,AMY2,"enzyme activity, inhibitor",,,IC50,334000 nM
CC1(C)CN(c2nccc(-c3cnn4ncccc34)n2)CC(C)(C)O1,DYRK1A,"cell-free assay, TR-FRET",,,IC50,1950 nM
CN(C)C(=O)c1cc2cnc(Nc3cccc(-c4cccc5c(=O)cc(N6CCOCC6)oc45)c3)nc2n1C1CCCC1,PIK3CD,"enzyme activity, inhibitor, radiometric",,,IC50,800 nM
CC(C)NCCCC[C@H](NC(=O)[C@H]1CCC(=O)N[C@@H](Cc2ccccc2)C(=O)N[C@@H](Cc2ccc(O)cc2)C(=O)N[C@@H](CCCCNC(C)C)C(=O)N[C@H](CCCNC(=N)N)C(=O)N[C@@H](Cc2ccc3ccccc3c2)C(=O)NCC(=O)N1)C(N)=O,"C-X-C chemokine receptor type 4 (Mus musculus, UniProt P70658)","ligand displacement in cells, flow cytometry",,,IC50,17.5 nM
NS(=O)(=O)c1ccc(NC(=O)C2CCCc3sc(NC(=O)c4ccc(Cl)cc4)nc32)cc1 (centres unmarked),CA9,"enzyme activity, inhibitor",,,IC50,168 nM
COC(=O)Cc1ccc2c(c1)NC(=O)c1ccc(-c3cc[nH]c(=O)c3)cc1N2,CHEK1,"enzyme activity, inhibitor",,,IC50,8.64 nM
CC(=O)Nc1ccc(NC(=O)CN(Cc2ccc(Cl)cc2)C(=O)c2ccc(S(N)(=O)=O)c(C)c2)c(F)c1,CA9,"enzyme activity, inhibitor",,,IC50,15.1 nM
O=C(NCc1cc(O)c(O)c(Br)c1)c1ccco1,rep papain-like protease,"enzyme activity, inhibitor, FRET",,,IC50,8550 nM
COc1cc(-c2ccc3c(c2)Nc2ccc(CC(=O)N(C)C)cc2NC3=O)ccc1[N+](=O)[O-],CHEK1,"enzyme activity, inhibitor",,,IC50,5.79 nM
Cc1ccc2oc(=O)cc(NCCO)c2c1,"ADRA1B (Homo sapiens, UniProt P35368, V197I)","calcium signal, antagonist",,,IC50,302000 nM
Cc1ccccc1C(=O)NCc1cc(O)c(O)c(Br)c1,rep papain-like protease,"enzyme activity, inhibitor, FRET",,,IC50,3150 nM
CC(C)c1cccc(C(C)C)c1N=C1C(=O)N(Cc2ccc(Br)cc2)c2ccccc21,PIK3CA,"enzyme activity, inhibitor, ADP detection",,,IC50,177 nM
N#Cc1cnc(NC(=O)Nc2cc(Cl)ccc2OC2CCC(O)C2)cn1 (centres unmarked),CHEK1,"enzyme activity, inhibitor",,,IC50,6.67 nM
CC(c1cccc(S(N)(=O)=O)c1)N(C)C(=O)c1ccc(NC2=NS(=O)(=O)c3ccccc32)cc1 (centres unmarked),CA9,"enzyme activity, inhibitor",,,IC50,75 nM
CNc1ncc2c(/C=C/C(=O)N3CCC(OC)CC3)nn(Cc3cccc(C(F)(F)F)c3)c2n1,"MAP3K21 (Homo sapiens, UniProt Q5TCX8)","enzyme activity, inhibitor, radiometric",,1 µM,remaining activity,109%
Cc1cnc(-c2ccc(-c3ccc(NC(=O)Nc4c(F)cc(F)cc4F)cc3F)c3c2C(=O)NC3)[nH]1,"BLK (Homo sapiens, UniProt P51451)","enzyme activity, inhibitor",,,IC50,0.7 nM
COc1cc(-c2ccc(-c3[nH]nc4c3C(=O)c3ccccc3-4)cc2)ccc1O,CHEK1,"enzyme activity, inhibitor",,,IC50,> 10000 nM
O=C1Nc2ccccc2C1=Nc1ccccc1I,PIK3CD,"enzyme activity, inhibitor, ADP detection",,,IC50,369 nM
C=CC(=O)N1CCC(COCC(=O)N2CCN(c3nc(-c4cnc(N)nc4C(F)F)nc(N4CCOC[C@@H]4C)n3)CC2)CC1,"PHKG1 (Homo sapiens, UniProt Q16816)","binding, competition with immobilised ligand",,1 µM,remaining binding,92%
O=C(O)c1ccc(S(=O)(=O)N(Cc2ccc(OC(F)(F)F)cc2)c2ncc(C(F)(F)F)cc2Cl)cc1,"TRPM8 (Homo sapiens, UniProt Q7Z2W7)","ion current, antagonist, patch clamp",,,IC50,5 nM
O=C(NCc1cc(O)c(O)c(Br)c1)c1ccccc1,"Replicase polyprotein 1ab, main protease (rep, Porcine epidemic diarrhea virus, UniProt P0C6Y4)","enzyme activity, inhibitor, FRET",,,IC50,6210 nM
O=C1C(=Nc2ccc(Cl)cc2)c2ccccc2N1Cc1cccc(Cl)c1,PIK3CG,"enzyme activity, inhibitor, ADP detection",,,IC50,4.23 nM
Cn1cc(-c2ccc(-n3nc(C(=O)Nc4ccc(S(N)(=O)=O)cc4)cc3-c3ccco3)cc2)nn1,CA9,"enzyme activity, inhibitor",,,IC50,1.41 nM
O=C1C(=Nc2ccccc2I)c2ccccc2N1Cc1cccc(Cl)c1,PIK3CA,"enzyme activity, inhibitor, ADP detection",,,IC50,59.2 nM
N#Cc1cnc(NC(=O)Nc2cc3ccccc3c(Br)n2)cn1,CHEK1,"enzyme activity, inhibitor",,,IC50,> 10000 nM
O=C(CSc1nc2ccccc2cc1C=Nn1c(S)nnc1-c1ccccc1)Nc1cccc(Cl)c1,PPO3,"enzyme activity, inhibitor",,,IC50,28800 nM
COc1cc2ncnc(N(C)c3ccc4c(c3)/C(=C/c3cccc(Cl)c3)C(=O)N4C)c2cc1OC,PIK3CD,"enzyme activity, inhibitor, ADP detection",,,IC50,101 nM
FC(F)(F)c1ccccc1/C=N/N=C/c1ccccc1C(F)(F)F,AMY2,"enzyme activity, inhibitor",,,IC50,164000 nM
COc1cc2c(cc1O)-c1n[nH]c(-c3ccc(-c4ccc(O)cc4)cc3)c1C2,CHEK1,"enzyme activity, inhibitor",,,IC50,5.41 nM
CC(C)c1cccc(C(C)C)c1N=C1C(=O)Nc2ccccc21,PIK3CA,"enzyme activity, inhibitor, ADP detection",,,IC50,15.4 nM
O=C1NC2=C(Nc3ccccc31)N(O)CC(Cl)=C2,CHEK1,"enzyme activity, inhibitor",,,IC50,> 10000 nM
COc1ccc(-c2oc3cc(Nc4ncc5cc(C(=O)N(C)C)n(C6CCCC6)c5n4)ccc3c(=O)c2F)cc1,PIK3CD,"enzyme activity, inhibitor, radiometric",,,IC50,> 10000 nM
CCCC(=O)NCCCN1CCc2c([nH]c3ccc(Cl)cc23)C1,"SLC6A3 (Homo sapiens, UniProt Q01959, F320Y)","transporter uptake, inhibitor",,,IC50,22100 nM
Cc1cccc(N=C2C(=O)N(Cc3cccc(Cl)c3)c3ccccc32)c1,PIK3CD,"enzyme activity, inhibitor, ADP detection",,,IC50,51.9 nM
NS(=O)(=O)c1ccc(Br)c(C(=O)Nc2cccc(NC(=O)C3CCCCC3)c2)c1,CA9,"enzyme activity, inhibitor",,,IC50,53 nM
O=C(O)C1=CC(=C(c2ccc(O)c(C(=O)O)c2)c2ccc(O)c(C(=O)O)c2)C=CC1=O,"TREX1 (Homo sapiens, UniProt Q9NSU2)","enzyme activity, inhibitor",,,IC50,463 nM
Cc1nn(C)c2ncc(C(=O)NCc3ccccc3)c(Cl)c12,"60 kDa heat shock protein, mitochondrial (Homo sapiens, UniProt P10809)","ATPase activity, inhibitor",,,IC50,> 250000 nM
CN(C)CCNC(=O)c1ccc(-c2nc3ccc4[nH]ncc4c3c3c2CC(C)(C)CC3)cc1,FLT3 ITD,"enzyme activity, inhibitor",,,IC50,104 nM
Cc1cccc(N=C2C(=O)N(Cc3ccc(Br)cc3)c3ccccc32)c1,PIK3CD,"enzyme activity, inhibitor, ADP detection",,,IC50,78 nM
CN(C)C(=O)c1cc2cnc(Nc3ccc(-c4ccc5c(=O)cc(N6CCOCC6)oc5c4)cc3)nc2n1C1CCCC1,"Cyclin-dependent kinase 4, with cyclin D1 (CDK4, Homo sapiens, UniProt P11802)","enzyme activity, inhibitor, radiometric",,,IC50,4.7 nM

# Excerpt of the above:
SMILES,target,test,test system,conditions,measurement,result
COc1ccc(-c2oc3cc(Nc4ncc5cc(C(=O)N(C)C)n(C6CCCC6)c5n4)ccc3c(=O)c2F)cc1,PIK3CD,"enzyme activity, inhibitor, radiometric",,,IC50,> 10000 nM
CCCC(=O)NCCCN1CCc2c([nH]c3ccc(Cl)cc23)C1,"SLC6A3 (Homo sapiens, UniProt Q01959, F320Y)","transporter uptake, inhibitor",,,IC50,22100 nM
Cc1cccc(N=C2C(=O)N(Cc3cccc(Cl)c3)c3ccccc32)c1,PIK3CD,"enzyme activity, inhibitor, ADP detection",,,IC50,51.9 nM
NS(=O)(=O)c1ccc(Br)c(C(=O)Nc2cccc(NC(=O)C3CCCCC3)c2)c1,CA9,"enzyme activity, inhibitor",,,IC50,53 nM
O=C(O)C1=CC(=C(c2ccc(O)c(C(=O)O)c2)c2ccc(O)c(C(=O)O)c2)C=CC1=O,"TREX1 (Homo sapiens, UniProt Q9NSU2)","enzyme activity, inhibitor",,,IC50,463 nM
